# Published values of several laboratories.
# Every numbered part comes from another study and shows a few of its results, in no order. Substitutions count along the parent as printed.

# Study 1 — technique: DHFR PCA, deep sequencing; medium: yeast; with: (+)-ABA 58 µM; baseline: wild-type fitted maximum; direction: higher = stronger binding
# Target: ABI1, truncated, D143A, DHFR fusion (Arabidopsis thaliana)
# Setting: methotrexate growth selection, single substitutions
# Parent: PYL1, truncated, DHFR fusion (Arabidopsis thaliana); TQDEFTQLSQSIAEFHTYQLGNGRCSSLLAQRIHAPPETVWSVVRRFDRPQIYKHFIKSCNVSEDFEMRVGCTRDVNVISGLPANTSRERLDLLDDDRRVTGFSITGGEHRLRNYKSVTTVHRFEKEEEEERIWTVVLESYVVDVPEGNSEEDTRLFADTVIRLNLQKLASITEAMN
Variant,relative binding score
N61T,91.8%
H122G,17.9%
L82N,0.618%
H110Y,10.4%
E147F,76.6%
R155L,69.7%
T17C,76.7%
T39N,76.6%
S87W,-4.05%
E14T,76.6%
R32S,76.8%
V78D,6.27%
V62P,39%
V136M,95.4%
R99E,13.6%
E38Y,38.8%
N85H,88.4%
D153Q,57.8%
W134I,99.1%

# Study 2 — technique: RNA Bind-n-Seq; molecule type: RNA; medium: in vitro; tested at: 365 nM; baseline: no-protein control; direction: higher = stronger binding
# Target: RNA binding protein fox-1 homolog 2, RRM domain, GST-SBP tag (RBFOX2, Homo sapiens, UniProt O43251-10, residues 100-194)
# Setting: natural RNA segment, single round, ends assumed
# Construct (chain): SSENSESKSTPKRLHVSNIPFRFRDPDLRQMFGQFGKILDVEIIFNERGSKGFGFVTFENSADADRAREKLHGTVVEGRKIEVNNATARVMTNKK
Sequence,RBNS enrichment (R)
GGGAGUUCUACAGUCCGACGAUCGACAUCCGCCAGGCUUCCCCUCAGCAGCAGGAGCCCAGGUCACCCUGGUUAAACUGCAGUGAUACAUUUAGGUGGGUGGGGUCAAGGCAUAUGUGGCCUCCGGGAGACACUGGAAUUCUCGGGUGCCAA,0.377
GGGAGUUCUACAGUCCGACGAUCUGUGAGUAUGGGACAGCCGAGUUAUACCCAAGCCCAGAUGCCCCCCCAUCCUGCUCAGCUGCGUCAUGGGCCCCCCAUGCAUACGUACAUUCCUGGACACCCUCACCACCUGGAAUUCUCGGGUGCCAA,0.808
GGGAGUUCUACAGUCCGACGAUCCACCGUGAGCUGUAGGAUCAGCUGGCUGGCUGGGUUGGUGAGUGCCUACCUUGAGGUCUCAUGAAAGCUCCUGGAGCUGUGUGGUUGUCUUUGGUGCUGUUAACCCUUGGUGGAAUUCUCGGGUGCCAA,0.596
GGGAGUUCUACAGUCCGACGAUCUUAUUUUGCUUAAGUCAACAGUGCCCUAAAACUCCAAACUCAAAUGCAGUCAAUUAUUCACGCCAUGCACAGCAUAAUUUGCUCCUUUGUGUGGAGUGGUGUGUCAGCCCUGGAAUUCUCGGGUGCCAA,0.386
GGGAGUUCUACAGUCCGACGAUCGAAUAGGUAAAUGCCAAUACCCAUACAGUUUUUCUAGUGGGGACAAAGGCCGUUUUAUUAGAAAUUUAGGCUUUCAUGCCUGUAGACCCUAGUUAUUAAAUGCACUAAACUGGAAUUCUCGGGUGCCAA,1.19
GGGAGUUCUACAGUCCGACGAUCAGGCCGCCCCAGCCUCUGAGCCCCUGGGACUGCUGCUUCUUAACCCCAGUAAGCCACUGCCACACGUCUGACCCUCUCCACCCCAUAGUGACCGGCUGCUUUUCCCUAAGUGGAAUUCUCGGGUGCCAA,0.6
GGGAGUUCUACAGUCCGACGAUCGCAGGAGAAUUGCUUGAGCCCGGGAGGCAGAGGCUGCAGUGAACCAAGAUCAUGCCACUGCACUCCAGCCUGGGCAACACAGCGAGACUCCGUCUCAAAAAGAAAAAGUUUGGAAUUCUCGGGUGCCAA,0.501
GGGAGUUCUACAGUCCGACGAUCUGUAGCAGAAUGGUAUUUUCCUCAAGUAGCUCAUAAUACUGCCAAAUCUCAAAAGUUAAGCUGAAUUUCACACCAGAUCCUACCCCUUUCCCUGAGCCACAUGUUUCACAUGGAAUUCUCGGGUGCCAA,0.722
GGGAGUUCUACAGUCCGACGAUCAGGUCGUCCCCCACACAAACAUACCCCUUGCGCACCUUCUGCCUACUUUGAGCCGGAUCUGGCCUGUGACUAGAAGACCAACCCCUACGAGGAAAUGUGGAGCUCAACGUUGGAAUUCUCGGGUGCCAA,0.329
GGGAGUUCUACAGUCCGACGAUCAGAACCGAGUGCCUAUGAGGACAGUGUCCGCCCUGCCCUCCGCAACGUGCAGUCCCUGGGCACGGCGGGCCCUGCCAUGUGCUGGUAACGCAUGCCUGGGCCCUGCUGGGUGGAAUUCUCGGGUGCCAA,2.57
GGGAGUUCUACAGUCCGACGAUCAGUUACCAAGAGAAGCUGGAGGGAUACCUCUGAGUGACUGCUGUGUUUCUUCUAUUGUAGACACCAAGUCUCCCUGAGAUUCCUGAUGGGGUAUUACCUACCAAGAUAAUUGGAAUUCUCGGGUGCCAA,0.505
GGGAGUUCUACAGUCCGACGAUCGGUUCAAGGUCUUAUUUAACAAACCAGAAAAAUGCAGGCCAAGCCCUAAUUCAUCAUAUUGGUUUAAGCAUGCUGCCUCCUGAGAGCCACAGUGUCAUAUACAGAUACUUUGGAAUUCUCGGGUGCCAA,0.77

# Study 3 — target: CCNB2, cyclin fold, Cln2 fusion (human); technique: yeast growth competition, sequencing; medium: yeast; setting: weak parent motif; baseline: not given; direction: higher = stronger binding
# Parent: SGO1 docking peptide (human); PLAKRALKYTDEK; partner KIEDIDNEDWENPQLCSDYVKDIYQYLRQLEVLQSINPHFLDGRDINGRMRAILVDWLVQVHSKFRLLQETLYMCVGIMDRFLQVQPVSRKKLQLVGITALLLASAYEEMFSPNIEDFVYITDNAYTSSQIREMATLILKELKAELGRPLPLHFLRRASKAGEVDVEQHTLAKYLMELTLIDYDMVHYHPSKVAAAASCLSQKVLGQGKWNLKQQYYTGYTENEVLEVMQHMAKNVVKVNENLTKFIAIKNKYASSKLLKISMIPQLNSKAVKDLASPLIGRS
Variant,normalised enrichment score
L7A,0.533
P1A,0.577
L2A,0.416
T10A,0.504

# Study 4 — technique: protein-binding microarray; molecule type: double-stranded DNA, one strand shown; medium: in vitro; tested at: 0.8 µM; setting: whole 60-bp probe, no competitor; direction: higher = stronger binding
# Target: Centromere-binding protein 1, full length, N-terminal tag (CBF1, Saccharomyces cerevisiae, UniProt P17106, residues 1-351)
# Sequence of UniProt P17106 (whole entry, looked up): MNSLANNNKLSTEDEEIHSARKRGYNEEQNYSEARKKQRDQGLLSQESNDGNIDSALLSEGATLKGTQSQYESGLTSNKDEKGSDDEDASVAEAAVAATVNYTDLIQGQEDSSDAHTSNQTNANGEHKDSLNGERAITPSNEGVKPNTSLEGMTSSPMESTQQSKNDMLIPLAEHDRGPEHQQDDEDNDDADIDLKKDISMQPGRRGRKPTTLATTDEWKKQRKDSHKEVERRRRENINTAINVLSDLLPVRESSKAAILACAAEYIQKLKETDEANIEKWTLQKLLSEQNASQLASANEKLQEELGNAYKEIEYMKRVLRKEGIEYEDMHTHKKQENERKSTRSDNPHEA
Sequence,fluorescence intensity
CCTAACTACTATAGAGTCATGAGATAGCTTCGTACAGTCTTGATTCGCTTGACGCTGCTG,564 a.u.
CTAAGTTTCATTAGGAACGTGAGCAGAAAAATATTCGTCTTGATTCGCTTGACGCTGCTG,1150 a.u.
CTAGTTTCTTTGGTGATCATGATATTAATAGAATTCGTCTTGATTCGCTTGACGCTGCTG,616 a.u.
GAAAAACATTTTGATGTCACAATGAAAGAACTCTAGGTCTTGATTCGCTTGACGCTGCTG,527 a.u.
CTATTAAAGAGGTGCTGCGTGGTGTAGAAAAGGTTCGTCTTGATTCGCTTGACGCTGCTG,578 a.u.
GAATTTTTCCATTGCACCGTGACTCTGGATTAATAGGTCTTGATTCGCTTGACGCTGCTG,762 a.u.
GAACTTGAACGATTTCACCAGATGTTTGTACACTAGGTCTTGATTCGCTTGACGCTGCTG,493 a.u.
GAATTACGTTACTATCACGTGATAACAATCACATAGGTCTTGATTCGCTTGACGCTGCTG,28300 a.u.
CTAAAGCGTCTATATCATGTGTATTTTAAGCGATTCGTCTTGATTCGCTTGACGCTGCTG,735 a.u.
GAAGACTATTGGCAGCATCAGAGAGAATTAAACTAGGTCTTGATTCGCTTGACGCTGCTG,535 a.u.
CTAATAAAAAAAGACTACGTGGGTGTTTACCTATTCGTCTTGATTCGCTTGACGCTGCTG,485 a.u.
GAAAAACTACATTATCTCGTGAAGAATATTTAATAGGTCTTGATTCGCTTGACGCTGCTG,621 a.u.
TGTACGAAGCTATTTCACGTGATTATAGTAGTTAGGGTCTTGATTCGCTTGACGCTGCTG,11500 a.u.
CTATGGGTGAAGCTGCATGTGAAATGAACTGGATTCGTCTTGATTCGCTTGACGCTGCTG,530 a.u.
CTAGCTATCTTCAACGTGATAGTTTATGCTACTTTCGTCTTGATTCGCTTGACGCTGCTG,823 a.u.
TGTACGAAGCTATCGAACATGTGTATAGTAGTTAGGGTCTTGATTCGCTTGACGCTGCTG,671 a.u.
GAAAATACTGGACATAGCATCATGAATTTTTTTTAGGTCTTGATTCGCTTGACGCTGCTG,530 a.u.
CTAACTATCTTACACGTGTTTGTAACATAAACGTTCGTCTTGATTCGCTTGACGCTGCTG,6550 a.u.
CTACATTGTAGCAAAAATGTGCGTGAAGCGTCTTTCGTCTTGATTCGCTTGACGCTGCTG,530 a.u.
GAACCTTCTTCGTACACCGTGATTTTTCAGACGTAGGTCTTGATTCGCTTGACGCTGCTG,633 a.u.
CTACTTACAGGTTTTCTCGTGAGGGAAGTGGAATTCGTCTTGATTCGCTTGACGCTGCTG,536 a.u.
GAAAATCCCGGATTTCTCATCACGGTTTCCATATAGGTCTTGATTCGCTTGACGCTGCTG,768 a.u.
GAACTCTTCAAGCAAAACGTGCTTAAAAGTGTCTAGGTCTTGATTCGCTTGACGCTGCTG,640 a.u.
GAAAAAAAATTAGATCACAAAAAGATAACTACATAGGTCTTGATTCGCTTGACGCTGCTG,517 a.u.
GAATCATCATTGGTGGTGGTGACACTGCCACTGTAGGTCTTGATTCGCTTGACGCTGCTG,527 a.u.

# Study 5 — technique: protein-binding microarray; molecule type: double-stranded DNA, one strand shown; medium: in vitro; tested at: 250 nM; setting: 60-bp whole probe; with: salmon DNA 0.4 mg/ml; baseline: random background probes; direction: higher = stronger binding; all sequences stand within: GCCTAGCAC … GTCTTGATTCGCTTGACGCTGCTG
# Target: Interferon regulatory factor 5, full length, phosphomimetic (IRF5, Homo sapiens, UniProt Q13568-2, residues 1-514, K96S/S451D/S453D/S456D/S462D)
Sequence,log fluorescence [z-score]
AATGATTACATATATGTTGGTGTGCTA,0.403
TTAGGATTGGGGACTGGGTTAGTGCTA,-0.377
GACGGTTCCCTTTCCCTGACGTGCTAG,0.282
GACGAACTGAGGTTCGAGACGTGCTAG,-0.483
GACGGTTTCGGTAACGGGACGTGCTAG,8.55
GATGATTTCAGTTCCGAGACGTGCTAG,1.91
CTAGATTCCAGTTTCGATTAGTGCTAG,9.82
TCATTTCTCCTTTCGGAACTGTGCTAG,5.11
TTCACTCTCTGCTTGTGTCTGTGCTAG,0.688
TTAGGACTGGACTTTTGGTTAGTGCTA,1.06
GACGAGTTCGGGTATCGAGACGTGCTA,0.657
TAAGATTTCGGGACTGGATTAGTGCTA,1.66
TTACCTTTTCACTTTACACAGTGCTAG,2.48
GACGCACTGAGTTTCGAGACGTGCTAG,4.04
GACGAAGTGAGTCTCGAGACGTGCTAG,-0.224
GACGGCATCGGTTTCGGGACGTGCTAG,3.11
TTAGGACTGATTCTCCTTTAGTGCTAG,-0.0124

# Repeated from above (study 1):
Variant,relative binding score
H110Y,10.4%
E147F,76.6%
R155L,69.7%
T17C,76.7%
T39N,76.6%
S87W,-4.05%
E14T,76.6%
R32S,76.8%
